Measured values gathered from unrelated publications.
A part holds a random share of what one study measured. Several values in a cell are separate wells, animals, samples, runs or records.
UniProt P15056, sequence (whole entry, looked up): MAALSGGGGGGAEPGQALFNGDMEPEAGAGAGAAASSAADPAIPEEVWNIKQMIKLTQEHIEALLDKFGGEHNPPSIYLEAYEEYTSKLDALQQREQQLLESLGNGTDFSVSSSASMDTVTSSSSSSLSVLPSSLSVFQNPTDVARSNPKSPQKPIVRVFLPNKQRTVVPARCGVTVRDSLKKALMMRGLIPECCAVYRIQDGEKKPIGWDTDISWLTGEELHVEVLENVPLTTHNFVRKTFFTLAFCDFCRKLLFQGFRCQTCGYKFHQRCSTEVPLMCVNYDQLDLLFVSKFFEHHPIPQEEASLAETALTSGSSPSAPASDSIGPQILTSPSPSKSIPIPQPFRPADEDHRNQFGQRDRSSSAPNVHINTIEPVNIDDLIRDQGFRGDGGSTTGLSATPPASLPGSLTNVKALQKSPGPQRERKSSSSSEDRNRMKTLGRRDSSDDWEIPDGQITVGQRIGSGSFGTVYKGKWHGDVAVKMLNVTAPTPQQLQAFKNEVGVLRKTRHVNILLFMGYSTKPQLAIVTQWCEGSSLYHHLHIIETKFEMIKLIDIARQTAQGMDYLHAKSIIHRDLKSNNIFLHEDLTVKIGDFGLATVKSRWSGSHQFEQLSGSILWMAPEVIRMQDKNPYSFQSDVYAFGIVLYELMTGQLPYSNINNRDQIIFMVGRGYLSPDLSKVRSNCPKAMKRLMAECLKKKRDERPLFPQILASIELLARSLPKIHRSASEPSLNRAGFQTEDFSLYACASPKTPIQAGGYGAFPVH
UniProt O15111, sequence (whole entry, looked up): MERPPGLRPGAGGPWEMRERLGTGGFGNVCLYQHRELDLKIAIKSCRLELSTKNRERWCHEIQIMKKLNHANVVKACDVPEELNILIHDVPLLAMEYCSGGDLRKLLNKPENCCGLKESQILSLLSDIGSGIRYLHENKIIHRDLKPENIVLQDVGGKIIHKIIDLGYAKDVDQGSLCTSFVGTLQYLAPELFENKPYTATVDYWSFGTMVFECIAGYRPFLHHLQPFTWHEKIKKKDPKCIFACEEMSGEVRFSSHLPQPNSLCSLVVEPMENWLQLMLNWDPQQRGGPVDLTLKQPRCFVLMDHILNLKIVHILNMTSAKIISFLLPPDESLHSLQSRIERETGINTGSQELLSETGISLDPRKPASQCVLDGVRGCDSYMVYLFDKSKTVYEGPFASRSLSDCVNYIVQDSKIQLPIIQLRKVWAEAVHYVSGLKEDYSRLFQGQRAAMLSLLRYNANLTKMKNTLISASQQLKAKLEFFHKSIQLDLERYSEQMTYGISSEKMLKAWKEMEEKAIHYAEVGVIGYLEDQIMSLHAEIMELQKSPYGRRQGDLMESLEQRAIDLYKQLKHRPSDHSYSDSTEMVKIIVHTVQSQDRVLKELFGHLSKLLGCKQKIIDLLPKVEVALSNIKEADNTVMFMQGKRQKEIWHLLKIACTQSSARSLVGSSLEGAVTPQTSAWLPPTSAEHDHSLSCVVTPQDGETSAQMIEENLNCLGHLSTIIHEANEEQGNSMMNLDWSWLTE
UniProt Q13043, sequence (whole entry, looked up): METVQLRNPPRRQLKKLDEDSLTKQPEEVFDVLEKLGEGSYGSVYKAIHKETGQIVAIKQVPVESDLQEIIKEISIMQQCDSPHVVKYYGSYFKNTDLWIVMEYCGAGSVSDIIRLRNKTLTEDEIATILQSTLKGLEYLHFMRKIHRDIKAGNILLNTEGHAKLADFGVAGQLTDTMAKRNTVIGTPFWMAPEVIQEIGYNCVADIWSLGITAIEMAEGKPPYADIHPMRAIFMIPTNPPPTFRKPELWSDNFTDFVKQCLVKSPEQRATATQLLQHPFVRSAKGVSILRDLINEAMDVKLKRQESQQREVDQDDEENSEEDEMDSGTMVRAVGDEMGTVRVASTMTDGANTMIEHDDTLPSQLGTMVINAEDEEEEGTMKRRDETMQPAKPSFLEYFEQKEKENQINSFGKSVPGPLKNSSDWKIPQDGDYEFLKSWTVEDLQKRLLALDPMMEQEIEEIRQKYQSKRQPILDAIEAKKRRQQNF

Set 1 — observed: enzyme activity; action: inhibitor; tested at: 77 µM; relative to: untreated
Target: DNA polymerase theta, ATPase domain (POLQ, Homo sapiens, UniProt O75417)
UniProt O75417, sequence (whole entry, unmodified, looked up): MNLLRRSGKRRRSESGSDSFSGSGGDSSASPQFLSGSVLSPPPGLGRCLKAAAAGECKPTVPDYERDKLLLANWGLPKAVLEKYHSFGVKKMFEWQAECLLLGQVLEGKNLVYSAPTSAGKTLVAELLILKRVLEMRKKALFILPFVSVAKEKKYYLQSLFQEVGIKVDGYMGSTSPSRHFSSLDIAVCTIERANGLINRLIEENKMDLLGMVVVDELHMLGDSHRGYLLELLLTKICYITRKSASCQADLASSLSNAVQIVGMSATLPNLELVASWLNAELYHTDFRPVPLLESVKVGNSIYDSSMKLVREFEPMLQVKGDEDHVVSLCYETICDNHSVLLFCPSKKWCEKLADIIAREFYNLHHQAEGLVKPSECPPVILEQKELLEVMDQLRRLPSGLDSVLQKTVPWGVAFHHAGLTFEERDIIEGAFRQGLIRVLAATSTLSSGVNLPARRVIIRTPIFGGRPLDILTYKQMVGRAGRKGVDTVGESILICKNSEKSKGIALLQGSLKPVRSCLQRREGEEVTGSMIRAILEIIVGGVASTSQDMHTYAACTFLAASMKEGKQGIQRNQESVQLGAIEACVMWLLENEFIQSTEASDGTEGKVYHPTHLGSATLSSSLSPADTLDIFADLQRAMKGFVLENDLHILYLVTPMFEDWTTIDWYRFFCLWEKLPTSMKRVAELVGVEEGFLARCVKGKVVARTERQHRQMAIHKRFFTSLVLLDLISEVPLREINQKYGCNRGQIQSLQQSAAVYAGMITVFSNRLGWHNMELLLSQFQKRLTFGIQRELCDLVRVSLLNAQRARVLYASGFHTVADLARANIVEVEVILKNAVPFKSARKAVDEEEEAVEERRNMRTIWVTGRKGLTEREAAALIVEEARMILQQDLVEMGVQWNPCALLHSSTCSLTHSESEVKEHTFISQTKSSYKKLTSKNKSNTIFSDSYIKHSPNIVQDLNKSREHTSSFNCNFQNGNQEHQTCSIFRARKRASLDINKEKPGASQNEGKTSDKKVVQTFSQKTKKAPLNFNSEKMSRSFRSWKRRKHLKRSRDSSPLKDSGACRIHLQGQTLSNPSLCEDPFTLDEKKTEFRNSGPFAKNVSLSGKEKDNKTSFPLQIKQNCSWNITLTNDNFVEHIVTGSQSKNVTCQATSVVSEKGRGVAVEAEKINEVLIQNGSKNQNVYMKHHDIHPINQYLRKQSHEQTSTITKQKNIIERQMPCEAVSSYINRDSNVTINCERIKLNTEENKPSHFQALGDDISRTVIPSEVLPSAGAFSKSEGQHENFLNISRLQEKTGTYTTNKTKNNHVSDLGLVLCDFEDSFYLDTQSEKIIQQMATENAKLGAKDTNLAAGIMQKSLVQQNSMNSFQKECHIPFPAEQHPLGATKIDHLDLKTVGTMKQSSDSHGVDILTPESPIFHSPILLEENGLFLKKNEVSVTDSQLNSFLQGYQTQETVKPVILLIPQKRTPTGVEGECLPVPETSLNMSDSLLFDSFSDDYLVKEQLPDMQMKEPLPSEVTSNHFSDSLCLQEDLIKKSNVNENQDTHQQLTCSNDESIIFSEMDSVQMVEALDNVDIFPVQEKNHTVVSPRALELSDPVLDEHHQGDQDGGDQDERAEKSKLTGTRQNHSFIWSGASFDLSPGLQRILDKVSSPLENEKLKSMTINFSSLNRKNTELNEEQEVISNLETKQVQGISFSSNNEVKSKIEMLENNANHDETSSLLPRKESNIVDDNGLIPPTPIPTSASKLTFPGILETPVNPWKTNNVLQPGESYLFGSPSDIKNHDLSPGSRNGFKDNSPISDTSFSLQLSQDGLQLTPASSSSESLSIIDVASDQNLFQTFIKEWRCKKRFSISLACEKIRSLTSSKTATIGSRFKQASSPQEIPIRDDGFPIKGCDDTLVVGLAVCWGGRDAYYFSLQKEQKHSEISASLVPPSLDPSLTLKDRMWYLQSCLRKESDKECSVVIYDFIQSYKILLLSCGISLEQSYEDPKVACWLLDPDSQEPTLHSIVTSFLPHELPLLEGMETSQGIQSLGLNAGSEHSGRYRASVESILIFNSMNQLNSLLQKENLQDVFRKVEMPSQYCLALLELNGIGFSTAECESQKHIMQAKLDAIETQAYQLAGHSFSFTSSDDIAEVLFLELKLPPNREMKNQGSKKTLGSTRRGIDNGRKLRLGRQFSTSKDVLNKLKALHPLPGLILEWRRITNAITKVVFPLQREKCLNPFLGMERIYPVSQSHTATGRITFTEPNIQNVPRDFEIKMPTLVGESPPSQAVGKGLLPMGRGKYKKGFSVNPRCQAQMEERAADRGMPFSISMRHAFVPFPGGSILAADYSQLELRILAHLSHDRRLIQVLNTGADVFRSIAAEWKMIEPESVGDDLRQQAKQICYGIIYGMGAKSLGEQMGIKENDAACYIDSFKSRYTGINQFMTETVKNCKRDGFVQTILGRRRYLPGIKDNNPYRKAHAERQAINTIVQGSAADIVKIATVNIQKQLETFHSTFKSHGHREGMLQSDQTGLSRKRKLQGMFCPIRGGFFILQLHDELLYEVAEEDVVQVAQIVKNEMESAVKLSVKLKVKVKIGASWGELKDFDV
| SMILES | remaining activity |
| --- | --- |
| C/C=C1/C[N@+]2(C)CC[C@]34C(=C(C=O)[C@H]1C[C@@H]32)Nc1ccccc14 | 103% |
| CC(=O)Nc1ccc(Cc2ccc(NC(C)=O)cc2)cc1 | 101% |
| C[C@@H]1O[C@@H](O[C@H]2C[C@@H](O)[C@]3(CO)[C@H]4[C@H](O)C[C@]5(C)[C@@H](C6=CC(=O)OC6)CC[C@]5(O)[C@@H]4CC[C@]3(O)C2)[C@H](O)[C@H](O)[C@H]1O | 105% |
| CC(C)[N+](C)(CCC(C(N)=O)(c1ccccc1)c1ccccc1)C(C)C | 100% |
| c1cc2c(cc1[C@H]1OC[C@H]3[C@@H]1CO[C@@H]3c1ccc3c(c1)OCO3)OCO2 | 104% |
| CCCN(CCC)C1Cc2cc(OC)c(OC)cc2C1 | 102% |
| C=CC[C@]1(O)CC[C@H]2[C@@H]3CCC4=CC(=O)CCC4=C3C=C[C@@]21C | 95% |
| CC[N+]1(C)CCCC(OC(=O)C(O)(c2ccccc2)c2ccccc2)C1 (stereo not shown) | 98.7% |

Set 2 — observed: enzyme activity; action: inhibitor; tested at: 10 µM
Target: Calcium/calmodulin-dependent protein kinase type II subunit alpha (CAMK2A, Homo sapiens, UniProt Q9UQM7)
UniProt Q9UQM7, sequence (whole entry, looked up): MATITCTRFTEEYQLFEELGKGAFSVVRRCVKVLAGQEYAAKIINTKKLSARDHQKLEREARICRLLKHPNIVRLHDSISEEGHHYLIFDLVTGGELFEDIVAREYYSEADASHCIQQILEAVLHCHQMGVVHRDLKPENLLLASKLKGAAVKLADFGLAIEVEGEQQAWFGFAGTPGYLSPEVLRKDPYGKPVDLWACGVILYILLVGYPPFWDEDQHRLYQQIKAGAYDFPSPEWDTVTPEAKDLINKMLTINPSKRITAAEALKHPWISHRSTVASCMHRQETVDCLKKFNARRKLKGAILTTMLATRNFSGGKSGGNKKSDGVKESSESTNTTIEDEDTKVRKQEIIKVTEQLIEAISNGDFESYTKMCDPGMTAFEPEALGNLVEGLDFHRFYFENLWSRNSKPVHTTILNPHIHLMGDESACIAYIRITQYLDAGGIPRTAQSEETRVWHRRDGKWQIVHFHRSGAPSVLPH
| Structure (SMILES) | inhibition [%] |
| --- | --- |
| CCOC(=O)[C@H](Cc1ccc(F)cc1)NC(=O)[C@@H](N)Cc1ccc(N(CCCl)CCCl)cc1 | -7 |
| NCC(O)c1ccc(O)cc1 (stereo not shown) | -38 |
| CC(C)[N+](C)(CCC(C(N)=O)(c1ccccc1)c1ccccc1)C(C)C | -10 |
| CC(C)(O)[C@@H]1[C@H]2OC(=O)[C@@H]1[C@]1(O)C[C@H]3O[C@]34C(=O)O[C@H]2[C@]14C | -1 |
| COC[C@@]12CC[C@H](OC)[C@@]34[C@@H]5C[C@@]6(O)[C@H](OC(=O)c7ccccc7)[C@@H]5[C@@](OC(C)=O)([C@@H]([C@H](OC)[C@H]13)[C@H]4N(C)C2)[C@@H](O)[C@@H]6OC | -70 |
| C[C@@H](NC(=O)[C@@H](N)Cc1ccc(O)cc1)C(=O)N[C@@H](Cc1ccccc1)C(=O)NCC(=O)N[C@@H](Cc1ccc(O)cc1)C(=O)N1CCC[C@H]1C(=O)N[C@@H](CO)C(N)=O | 3 |
| CC(=O)Oc1ccc(/C=C/c2cc(OC(C)=O)cc(OC(C)=O)c2)cc1 | 30 |
| C[C@]12CC[C@H](O)C[C@H]1CC[C@@H]1[C@@H]2C(=O)[C@H](O)[C@]2(C)[C@@H](c3ccc(=O)oc3)CC[C@]12O | 21 |

Set 3 — cell line: mouse MPNST tumor cells; method: high-content nuclear imaging; measured: cell number; tested at: 10 µM; time: 12 h; notes: mean of 2 replicates; relative to: plate mean; direction: higher = more cells
| Compound | nuclei count |
| --- | --- |
| C#C[C@]1(O)CC[C@H]2[C@@H]3CCC4=CC(=O)CC[C@]4(C)[C@H]3CC[C@@]21C | 3.54 z-score |
| CCCOc1ccc2[nH]cc(C3=CCNCC3)c2n1 | 3.67 z-score |
| CN1[C@@H]2C[C@@H](OC(=O)[C@H](CO)c3ccccc3)C[C@H]1[C@@H]1O[C@@H]12 | 1.23 z-score |
| Nc1ccc(Oc2ccc(C(c3ccc(Oc4ccc(N)cc4)cc3)(C(F)(F)F)C(F)(F)F)cc2)cc1 | -1.89 z-score |
| OC(CNc1ccccc1)Cn1c2ccc(Br)cc2c2cc(Br)ccc21 (stereo not shown) | -0.617 z-score |
| C[C@@H]1CC[C@H]2[C@@H](C)C(=O)O[C@@H]3O[C@@]4(C)CC[C@@H]1[C@]32OO4 | 0.847 z-score and 3.02 z-score |
| CN1[C@@H]2CC[C@H]1CC(OC(=O)N1Cc3ccccc3NC1=O)C2 (stereo partly shown) | -0.289 z-score |
| CC(C)C[C@H]1C(=O)N2CCC[C@H]2[C@]2(O)O[C@](NC(=O)[C@@H]3C=C4c5cccc6[nH]c(Br)c(c56)C[C@H]4N(C)C3)(C(C)C)C(=O)N12 | 5.62 z-score and 3.4 z-score |
| O=C(O)C1=CCCN(CCOC(c2ccc(C(F)(F)F)cc2)c2ccc(C(F)(F)F)cc2)C1 | 1.44 z-score |

Set 4 — observed: enzyme activity; action: inhibitor; tested at: 0.5 µM; relative to: control
SMILES: COC[C@H]1OC(=O)c2coc3c2[C@@]1(C)C1=C(C3=O)[C@@H]2CCC(=O)[C@@]2(C)C[C@H]1OC(C)=O
| target | remaining activity [%] |
| --- | --- |
| SYK (Homo sapiens, UniProt P43405) | 107 |
| STK4 (Homo sapiens, UniProt Q13043) | 89.6 |
| CHUK (Homo sapiens, UniProt O15111) | 106 |
| SRPK2 (Homo sapiens, UniProt P78362) | 85.4 |
| PTK6 (Homo sapiens, UniProt Q13882) | 81.7 |
| CAMK2A (Homo sapiens, UniProt Q9UQM7) | 97.1 |
| BRAF (Homo sapiens, UniProt P15056) | 96.4 |
| HASPIN (Homo sapiens, UniProt Q8TF76) | 88.3 |
| MAP3K7 (Homo sapiens, UniProt O43318) | 97.2 |
